Results gathered from unrelated publications.
A part holds a random share of what one study measured.
Sequence of UniProt P00519 (whole entry, unmodified, looked up): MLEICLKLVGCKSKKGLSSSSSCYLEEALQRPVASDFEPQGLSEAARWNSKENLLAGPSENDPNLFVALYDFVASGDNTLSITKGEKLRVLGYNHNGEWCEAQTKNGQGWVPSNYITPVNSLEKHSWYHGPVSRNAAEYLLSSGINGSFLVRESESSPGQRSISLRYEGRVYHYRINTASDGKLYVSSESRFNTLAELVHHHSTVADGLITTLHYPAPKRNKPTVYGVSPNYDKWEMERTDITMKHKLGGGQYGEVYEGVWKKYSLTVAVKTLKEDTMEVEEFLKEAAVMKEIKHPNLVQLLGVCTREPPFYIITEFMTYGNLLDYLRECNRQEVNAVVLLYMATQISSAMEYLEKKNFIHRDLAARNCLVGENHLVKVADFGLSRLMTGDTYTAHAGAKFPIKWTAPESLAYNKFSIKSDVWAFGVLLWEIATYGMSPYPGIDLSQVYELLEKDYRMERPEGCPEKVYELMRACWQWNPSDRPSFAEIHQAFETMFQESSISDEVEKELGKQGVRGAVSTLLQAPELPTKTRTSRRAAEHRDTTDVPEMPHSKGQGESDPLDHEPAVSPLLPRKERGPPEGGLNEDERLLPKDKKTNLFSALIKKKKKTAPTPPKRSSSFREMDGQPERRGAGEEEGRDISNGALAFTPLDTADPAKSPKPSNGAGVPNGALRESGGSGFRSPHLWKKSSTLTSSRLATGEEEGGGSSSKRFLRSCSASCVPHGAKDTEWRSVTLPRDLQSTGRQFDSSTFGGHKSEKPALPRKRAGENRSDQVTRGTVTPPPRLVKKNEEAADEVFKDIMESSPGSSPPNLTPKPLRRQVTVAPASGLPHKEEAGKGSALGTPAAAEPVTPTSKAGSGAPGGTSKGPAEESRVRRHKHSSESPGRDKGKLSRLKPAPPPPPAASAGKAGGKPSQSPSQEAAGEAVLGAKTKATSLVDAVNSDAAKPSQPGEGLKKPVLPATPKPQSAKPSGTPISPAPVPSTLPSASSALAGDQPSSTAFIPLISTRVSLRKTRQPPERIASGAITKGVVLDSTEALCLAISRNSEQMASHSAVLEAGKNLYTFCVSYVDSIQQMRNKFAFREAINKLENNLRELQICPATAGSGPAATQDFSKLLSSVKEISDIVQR
Sequence of UniProt P45983 (whole entry, looked up): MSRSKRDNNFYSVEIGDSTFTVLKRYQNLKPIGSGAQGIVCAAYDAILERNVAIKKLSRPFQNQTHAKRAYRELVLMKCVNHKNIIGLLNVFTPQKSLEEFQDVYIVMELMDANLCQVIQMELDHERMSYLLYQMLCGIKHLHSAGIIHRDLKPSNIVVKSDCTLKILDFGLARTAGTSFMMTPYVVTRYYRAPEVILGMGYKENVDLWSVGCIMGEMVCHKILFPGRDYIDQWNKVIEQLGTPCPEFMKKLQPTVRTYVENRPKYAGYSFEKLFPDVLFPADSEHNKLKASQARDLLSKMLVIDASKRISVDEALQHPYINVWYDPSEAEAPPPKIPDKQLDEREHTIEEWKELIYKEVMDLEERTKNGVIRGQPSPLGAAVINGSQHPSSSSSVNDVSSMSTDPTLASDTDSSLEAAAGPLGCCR
Sequence of UniProt Q8TDX7 (whole entry, looked up): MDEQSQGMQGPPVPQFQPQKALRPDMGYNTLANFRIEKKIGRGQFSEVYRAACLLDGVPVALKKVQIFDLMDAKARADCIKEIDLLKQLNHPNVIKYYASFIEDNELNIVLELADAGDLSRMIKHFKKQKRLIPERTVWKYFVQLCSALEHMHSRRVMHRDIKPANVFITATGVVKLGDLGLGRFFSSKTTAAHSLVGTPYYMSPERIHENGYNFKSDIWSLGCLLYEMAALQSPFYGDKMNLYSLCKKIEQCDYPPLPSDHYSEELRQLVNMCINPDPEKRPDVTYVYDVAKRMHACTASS

Set 1 — read-out: cell-free assay; method: competition with immobilised ligand; concentration: 1 µM
Structure (SMILES): CCC(=O)N[C@H]1CC[C@@H](C(=O)N(C)c2ccc(-c3nc4ccccc4o3)cc2)C1
target | remaining binding
CDKL5 (Homo sapiens, UniProt O76039) | 82%
ROCK1 (Homo sapiens, UniProt Q13464) | 100%
WNK4 (Homo sapiens, UniProt Q96J92) | 100%
ERBB4 (Homo sapiens, UniProt Q15303) | 100%
IKBKB (Homo sapiens, UniProt O14920) | 90%
TGFBR1 (Homo sapiens, UniProt P36897) | 100%
SRPK2 (Homo sapiens, UniProt P78362) | 61%
EGFR (Homo sapiens, UniProt P00533, del747-750/T751S) | 100%
NEK3 (Homo sapiens, UniProt P51956) | 66%
NEK9 (Homo sapiens, UniProt Q8TD19) | 99%
NEK2 (Homo sapiens, UniProt P51955) | 100%
FLT3 (Homo sapiens, UniProt P36888, ITD) | 91%
Tyrosine-protein kinase ABL1, non-phosphorylated (ABL1, Homo sapiens, UniProt P00519) | 85%
HCK (Homo sapiens, UniProt P08631) | 100%
EPHB3 (Homo sapiens, UniProt P54753) | 76%
CDK15 (Homo sapiens, UniProt Q96Q40) | 89%
BMPR1A (Homo sapiens, UniProt P36894) | 88%
TAOK2 (Homo sapiens, UniProt Q9UL54) | 76%

Set 2 — read-out: enzyme activity; action: inhibitor; concentration: 77 µM; reference: untreated
Target: DNA polymerase theta, ATPase domain (POLQ, Homo sapiens, UniProt O75417)
Sequence of UniProt O75417 (whole entry, unmodified, looked up): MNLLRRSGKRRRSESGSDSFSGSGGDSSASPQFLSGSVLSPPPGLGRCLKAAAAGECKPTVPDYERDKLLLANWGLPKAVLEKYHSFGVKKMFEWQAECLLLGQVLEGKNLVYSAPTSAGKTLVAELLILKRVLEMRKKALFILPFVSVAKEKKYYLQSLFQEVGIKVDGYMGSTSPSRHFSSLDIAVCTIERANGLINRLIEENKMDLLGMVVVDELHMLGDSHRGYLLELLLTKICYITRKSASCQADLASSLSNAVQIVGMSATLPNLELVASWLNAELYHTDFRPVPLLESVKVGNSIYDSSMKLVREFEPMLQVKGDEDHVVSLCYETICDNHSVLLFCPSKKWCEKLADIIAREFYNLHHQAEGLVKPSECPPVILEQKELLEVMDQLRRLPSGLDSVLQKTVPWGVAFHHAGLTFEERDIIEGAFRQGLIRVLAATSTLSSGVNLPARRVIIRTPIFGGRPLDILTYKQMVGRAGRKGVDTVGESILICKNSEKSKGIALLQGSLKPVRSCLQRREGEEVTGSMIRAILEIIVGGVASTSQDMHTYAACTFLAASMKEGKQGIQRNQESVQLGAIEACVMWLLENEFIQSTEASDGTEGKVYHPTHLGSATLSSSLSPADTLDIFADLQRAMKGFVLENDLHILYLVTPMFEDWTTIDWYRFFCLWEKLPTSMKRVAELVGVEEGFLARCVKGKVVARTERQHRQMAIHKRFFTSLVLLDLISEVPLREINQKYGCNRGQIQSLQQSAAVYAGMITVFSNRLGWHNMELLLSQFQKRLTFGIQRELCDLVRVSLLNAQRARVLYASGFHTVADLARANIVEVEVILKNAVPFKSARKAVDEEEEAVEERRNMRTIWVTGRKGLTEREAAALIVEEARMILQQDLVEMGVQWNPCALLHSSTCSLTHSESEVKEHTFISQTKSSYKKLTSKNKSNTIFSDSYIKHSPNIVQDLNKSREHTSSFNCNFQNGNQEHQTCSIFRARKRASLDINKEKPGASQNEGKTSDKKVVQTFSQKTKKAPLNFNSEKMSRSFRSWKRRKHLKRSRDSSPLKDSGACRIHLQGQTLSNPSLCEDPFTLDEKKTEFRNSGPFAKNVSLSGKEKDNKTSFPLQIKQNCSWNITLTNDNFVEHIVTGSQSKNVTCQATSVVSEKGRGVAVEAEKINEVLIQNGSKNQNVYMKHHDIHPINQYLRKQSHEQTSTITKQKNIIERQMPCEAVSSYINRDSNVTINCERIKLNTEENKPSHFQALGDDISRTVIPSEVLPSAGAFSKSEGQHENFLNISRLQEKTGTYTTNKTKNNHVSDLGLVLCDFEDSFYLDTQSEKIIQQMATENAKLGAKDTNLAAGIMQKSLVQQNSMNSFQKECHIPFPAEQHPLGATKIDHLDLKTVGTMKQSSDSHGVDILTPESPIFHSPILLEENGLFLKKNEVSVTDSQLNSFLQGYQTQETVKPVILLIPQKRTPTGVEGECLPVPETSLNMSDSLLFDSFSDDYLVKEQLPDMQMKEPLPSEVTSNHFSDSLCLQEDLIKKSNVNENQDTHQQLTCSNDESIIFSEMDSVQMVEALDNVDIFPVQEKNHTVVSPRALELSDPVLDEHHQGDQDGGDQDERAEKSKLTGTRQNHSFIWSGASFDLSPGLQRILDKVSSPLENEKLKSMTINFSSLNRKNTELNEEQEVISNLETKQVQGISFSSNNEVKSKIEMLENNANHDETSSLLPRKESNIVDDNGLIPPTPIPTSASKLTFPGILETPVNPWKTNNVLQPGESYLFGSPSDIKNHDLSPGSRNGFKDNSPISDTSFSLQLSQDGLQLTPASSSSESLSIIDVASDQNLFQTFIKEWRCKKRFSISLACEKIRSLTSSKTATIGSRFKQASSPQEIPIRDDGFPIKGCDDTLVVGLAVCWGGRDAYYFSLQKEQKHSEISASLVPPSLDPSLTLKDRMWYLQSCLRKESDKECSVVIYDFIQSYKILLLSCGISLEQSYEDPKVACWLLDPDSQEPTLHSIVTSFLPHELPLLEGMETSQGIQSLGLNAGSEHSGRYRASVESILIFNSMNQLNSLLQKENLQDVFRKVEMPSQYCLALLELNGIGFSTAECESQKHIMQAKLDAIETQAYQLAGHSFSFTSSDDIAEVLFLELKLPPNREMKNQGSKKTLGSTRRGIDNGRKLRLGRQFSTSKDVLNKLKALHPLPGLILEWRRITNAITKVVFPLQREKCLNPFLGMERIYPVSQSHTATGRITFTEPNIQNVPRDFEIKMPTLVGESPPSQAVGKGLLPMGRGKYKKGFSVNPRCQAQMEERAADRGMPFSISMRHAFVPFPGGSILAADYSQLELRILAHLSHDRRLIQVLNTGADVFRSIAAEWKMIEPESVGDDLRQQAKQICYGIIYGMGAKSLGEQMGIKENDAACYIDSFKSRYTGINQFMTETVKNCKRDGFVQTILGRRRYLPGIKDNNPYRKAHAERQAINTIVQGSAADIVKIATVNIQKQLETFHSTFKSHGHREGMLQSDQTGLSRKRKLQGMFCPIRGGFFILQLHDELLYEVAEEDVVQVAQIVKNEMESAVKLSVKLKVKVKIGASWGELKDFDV
Compound | remaining activity [%]
C[C@]12CC[C@@H]3c4ccc(OC(=O)c5ccccc5)cc4CC[C@H]3[C@@H]1CC[C@@H]2O | 104
CCCCOc1ccc(C(=O)Nc2ccc(F)cc2F)cc1 | 96.4
C[C@]12CC[C@H](O)CC1=CC[C@@H]1[C@@H]2CC[C@]2(C)C(n3cnc4ccccc43)=CC[C@@H]12 | 97.7
O=C(O)CCCc1c[nH]c2ccccc12 | 98.1
CCC(C)n1ncn(-c2ccc(N3CCN(c4ccc(OC[C@H]5CO[C@](Cn6cncn6)(c6ccc(Cl)cc6Cl)O5)cc4)CC3)cc2)c1=O (mixture of isomers) | 90.5
COc1cc2c(c(OC)c1OC)-c1c(cc3c(c1OC)OCO3)C[C@@H](C)[C@@H](C)C2 | 98.2
COC(=O)C1=CO[C@@H](O[C@@H]2O[C@H](CO)[C@@H](O)[C@H](O)[C@H]2O)[C@@H]2C(CO)=CC[C@H]12 | 97.1
COc1ccc(-c2cc(=O)c3c(O)cc(O[C@@H]4O[C@H](CO[C@@H]5O[C@@H](C)[C@H](O)[C@@H](O)[C@H]5O)[C@@H](O)[C@H](O)[C@H]4O)cc3o2)cc1O | 96.4
CC1(C)[C@@H](O[C@H]2O[C@H](C(=O)O)[C@@H](O)[C@H](O)[C@H]2O[C@@H]2O[C@H](C(=O)O)[C@@H](O)[C@H](O)[C@H]2O)CC[C@]2(C)[C@H]3C(=O)C=C4[C@@H]5C[C@@](C)(C(=O)O)CC[C@]5(C)CC[C@@]4(C)[C@]3(C)CC[C@@H]12 | 96.2
C[C@H](CCC(=O)O)[C@H]1CC[C@H]2[C@@H]3C(=O)C[C@@H]4CC(=O)CC[C@]4(C)[C@H]3CC(=O)[C@]12C | 95
O=C(c1ccccc1)c1ccc2nc(NC(=O)c3csc(C4CCN(c5ncnc6ccsc56)CC4)n3)[nH]c2c1 | 97.1
O=C(NC(NC(=S)Nc1ccc(F)c([N+](=O)[O-])c1)C(Cl)(Cl)Cl)C(c1ccccc1)c1ccccc1 (centres unmarked) | 98.5
Nc1ncnc2c1C(=O)N(c1ccc([C@H]3CC[C@H](CC(=O)O)CC3)cc1)CCO2 | 92.5
CC(C)(C)c1cc(C(C)(C)C)c(NC(=O)c2c[nH]c3ccccc3c2=O)cc1O | 101
Cc1c(C(=O)Nc2ccc(N3C[C@@H](C)O[C@@H](C)C3)nc2)cccc1-c1ccc(OC(F)(F)F)cc1 | 98.4

Set 3 — concentration: 1 µM
Structure (SMILES): COc1ccc2[nH]c3c4[nH]c5ccc(OC)cc5c4c4c(c3c2c1)C(=O)NC4=O
target | assay | conditions | scale | remaining binding
MAP2K1 (Homo sapiens, UniProt Q02750) | competitive binding | MEK1 |  | 70%
MATK (Homo sapiens, UniProt P42679) | competitive binding | CTK |  | 93%
TAOK3 (Homo sapiens, UniProt Q9H2K8) | competitive binding panel |  | reference: vehicle | 96%
PLK4 (Homo sapiens, UniProt O00444) | competitive binding panel |  | reference: vehicle | 1.4%
NUAK1 (Homo sapiens, UniProt O60285) | competitive binding panel, item: ARK5 |  | reference: vehicle | 25%
SYK (Homo sapiens, UniProt P43405) | competitive binding panel |  | reference: vehicle | 73%
NUAK2 (Homo sapiens, UniProt Q9H093) | competitive binding | SNARK |  | 59%
MST1R (Homo sapiens, UniProt Q04912) | competitive binding panel |  | reference: vehicle | 93%
NEK7 (Homo sapiens, UniProt Q8TDX7) | competitive binding panel |  | reference: vehicle | 92%
LRRK2 (Homo sapiens, UniProt Q5S007) | competitive binding panel |  | reference: vehicle | 2.8%
CDKL2 (Homo sapiens, UniProt Q92772) | competitive binding panel |  | reference: vehicle | 92%
CDK18 (Homo sapiens, UniProt Q07002) | competitive binding panel, item: PCTK3 |  | reference: vehicle | 80%
MAP3K1 (Homo sapiens, UniProt Q13233) | competitive binding panel |  | reference: vehicle | 71%
PIKFYVE (Homo sapiens, UniProt Q9Y2I7) | competitive binding panel |  | reference: vehicle | 0%
JAK1 (Homo sapiens, UniProt P23458) | competitive binding panel |  | reference: vehicle | 39%
MAPK15 (Homo sapiens, UniProt Q8TD08) | competitive binding panel, item: ERK8 |  | reference: vehicle | 58%
ABL1 (Homo sapiens, UniProt P00519, F317L) | competitive binding panel |  | reference: vehicle | 84%
PKN1 (Homo sapiens, UniProt Q16512) | competitive binding panel |  | reference: vehicle | 42%
MAPK8 (Homo sapiens, UniProt P45983) | competitive binding | JNK1 |  | 82%

Set 4 — read-out: enzyme activity; action: inhibitor; concentration: 0.5 µM; reference: control
Target: Dual specificity tyrosine-phosphorylation-regulated kinase 2 (DYRK2, Homo sapiens, UniProt Q92630)
Sequence of UniProt Q92630 (whole entry, looked up): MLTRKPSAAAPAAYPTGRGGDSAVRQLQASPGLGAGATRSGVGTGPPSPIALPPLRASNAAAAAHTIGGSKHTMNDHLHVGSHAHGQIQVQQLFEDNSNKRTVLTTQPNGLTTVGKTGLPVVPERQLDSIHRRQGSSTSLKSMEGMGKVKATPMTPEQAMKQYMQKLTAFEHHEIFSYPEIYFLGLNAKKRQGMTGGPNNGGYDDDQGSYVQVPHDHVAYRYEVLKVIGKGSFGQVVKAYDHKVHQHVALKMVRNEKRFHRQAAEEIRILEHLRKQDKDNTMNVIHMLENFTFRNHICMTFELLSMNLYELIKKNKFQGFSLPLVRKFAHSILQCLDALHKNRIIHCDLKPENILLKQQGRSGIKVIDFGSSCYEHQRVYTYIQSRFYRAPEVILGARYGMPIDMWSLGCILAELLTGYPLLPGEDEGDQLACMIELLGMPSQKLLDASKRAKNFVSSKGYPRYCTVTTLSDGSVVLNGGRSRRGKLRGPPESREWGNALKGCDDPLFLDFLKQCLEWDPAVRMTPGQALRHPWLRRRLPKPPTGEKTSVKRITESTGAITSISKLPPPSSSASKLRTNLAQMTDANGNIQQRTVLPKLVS
Structure (SMILES) | remaining activity
CCN(CC)CCNC(=O)c1c(C)[nH]c(/C=C2\C(=O)Nc3ccc(F)cc32)c1C | 82.6%
COc1cc2ncnc(Nc3ccc(O)c(Br)c3)c2cc1OC | 60%
O=c1cc(-c2cccc3c2Sc2ccccc2S3)oc(N2CCOCC2)c1 | 104%
O=C(NC(NC(=S)Nc1ccc(F)c([N+](=O)[O-])c1)C(Cl)(Cl)Cl)C(c1ccccc1)c1ccccc1 (centres unmarked) | 102%
CCOc1nc(NC(=O)Cc2cc(OC)ccc2OC)cc(N)c1C#N | 111%
CN(C)C[C@H]1CCn2c(c(C3=C(c4cn(C)c5ccccc45)C(=O)NC3=O)c3ccccc32)C1 | 102%
Ic1cccc(CSc2nnc(-c3ccncc3)o2)c1 | 96.8%
O=C1c2ccccc2-c2n[nH]c3cccc1c23 | 14.2%
COc1cc2c(cc1OC)-c1[nH]nc(Nc3cccc(F)c3)c1C2 | 95.3%
N#Cc1c(NC(=O)c2cccc3ccccc23)sc2c1CCCC2 | 119%
N#C/C(=C\c1ccc(O)c(O)c1)C(=O)NCc1ccccc1 | 103%
CCN(CC)C(=O)c1ccc(Nc2nc(OCC3CCCCC3)c3[nH]cnc3n2)cc1 | 98.2%
COc1cc2ncnc(Nc3cccc(Cl)c3)c2cc1OC | 84.6%
Cc1cn(-c2cc(NC(=O)c3ccc(C)c(Nc4nccc(-c5cccnc5)n4)c3)cc(C(F)(F)F)c2)cn1 | 101%
Cc1nc2cc3nc(-c4cccs4)cnc3cc2n1C | 104%
CCN(CC)CCNC(=O)c1c(C)[nH]c(/C=C2\C(=O)Nc3ccc(Cl)cc32)c1C | 82.7%
Nc1cccc(-c2cc3c(Oc4cccc(O)c4)ncnc3[nH]2)c1 | 76.9%
Cc1cc2ncc(-c3ccccc3)nc2cc1C | 95.9%
C[C@@H]1CCN(C(=O)CC#N)C[C@@H]1N(C)c1ncnc2[nH]ccc12 | 112%
Cn1nc2c3c(cccc31)C(=O)c1ccccc1-2 | 99.5%
CN([C@@H](Cc1ccc(OS(=O)(=O)c2cccc3cnccc23)cc1)C(=O)N1CCN(c2ccccc2)CC1)S(=O)(=O)c1cccc2cnccc12 | 97.7%
c1ccc(-c2[nH]ncc2-c2ccnc3ccccc23)nc1 | 113%
O=C1C(Cl)=C(N2C(=O)CCC2=O)C(=O)c2ccccc21 | 98.6%
c1ccc(-c2cnc(Nc3ccc(OCCN4CCCC4)cc3)s2)cc1 | 95%
O=C(Nc1cccc(Nc2nccc(Nc3cccc(C(F)(F)F)c3)n2)c1)C1CC1 | 106%

Repeated from above (set 4):
Structure (SMILES) | remaining activity
CCN(CC)CCNC(=O)c1c(C)[nH]c(/C=C2\C(=O)Nc3ccc(Cl)cc32)c1C | 82.7%
O=c1cc(-c2cccc3c2Sc2ccccc2S3)oc(N2CCOCC2)c1 | 104%
c1ccc(-c2cnc(Nc3ccc(OCCN4CCCC4)cc3)s2)cc1 | 95%
c1ccc(-c2[nH]ncc2-c2ccnc3ccccc23)nc1 | 113%
Ic1cccc(CSc2nnc(-c3ccncc3)o2)c1 | 96.8%
N#Cc1c(NC(=O)c2cccc3ccccc23)sc2c1CCCC2 | 119%
